Results of several laboratories.
Numbered parts are unrelated; each lists some results of a single study. “And” joins repeats or separate records; there may be more than shown. Numbers after ± are the reported error.
Chain of UniProt P23443 (whole entry, looked up): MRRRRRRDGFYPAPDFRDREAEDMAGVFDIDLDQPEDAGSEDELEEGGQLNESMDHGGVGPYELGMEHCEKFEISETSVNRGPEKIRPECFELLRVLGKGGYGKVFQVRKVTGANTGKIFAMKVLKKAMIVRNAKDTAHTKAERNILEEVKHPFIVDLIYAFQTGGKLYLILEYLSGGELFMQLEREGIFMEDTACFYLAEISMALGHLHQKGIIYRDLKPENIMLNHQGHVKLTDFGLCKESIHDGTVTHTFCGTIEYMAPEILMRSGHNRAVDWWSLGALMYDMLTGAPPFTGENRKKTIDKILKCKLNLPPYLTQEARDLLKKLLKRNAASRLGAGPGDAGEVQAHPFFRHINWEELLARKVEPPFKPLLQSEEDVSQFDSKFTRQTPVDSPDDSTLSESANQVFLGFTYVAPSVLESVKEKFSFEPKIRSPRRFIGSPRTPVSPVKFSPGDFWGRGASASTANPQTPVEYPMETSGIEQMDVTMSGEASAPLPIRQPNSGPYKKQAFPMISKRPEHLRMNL
Chain of UniProt O75582 (whole entry, looked up): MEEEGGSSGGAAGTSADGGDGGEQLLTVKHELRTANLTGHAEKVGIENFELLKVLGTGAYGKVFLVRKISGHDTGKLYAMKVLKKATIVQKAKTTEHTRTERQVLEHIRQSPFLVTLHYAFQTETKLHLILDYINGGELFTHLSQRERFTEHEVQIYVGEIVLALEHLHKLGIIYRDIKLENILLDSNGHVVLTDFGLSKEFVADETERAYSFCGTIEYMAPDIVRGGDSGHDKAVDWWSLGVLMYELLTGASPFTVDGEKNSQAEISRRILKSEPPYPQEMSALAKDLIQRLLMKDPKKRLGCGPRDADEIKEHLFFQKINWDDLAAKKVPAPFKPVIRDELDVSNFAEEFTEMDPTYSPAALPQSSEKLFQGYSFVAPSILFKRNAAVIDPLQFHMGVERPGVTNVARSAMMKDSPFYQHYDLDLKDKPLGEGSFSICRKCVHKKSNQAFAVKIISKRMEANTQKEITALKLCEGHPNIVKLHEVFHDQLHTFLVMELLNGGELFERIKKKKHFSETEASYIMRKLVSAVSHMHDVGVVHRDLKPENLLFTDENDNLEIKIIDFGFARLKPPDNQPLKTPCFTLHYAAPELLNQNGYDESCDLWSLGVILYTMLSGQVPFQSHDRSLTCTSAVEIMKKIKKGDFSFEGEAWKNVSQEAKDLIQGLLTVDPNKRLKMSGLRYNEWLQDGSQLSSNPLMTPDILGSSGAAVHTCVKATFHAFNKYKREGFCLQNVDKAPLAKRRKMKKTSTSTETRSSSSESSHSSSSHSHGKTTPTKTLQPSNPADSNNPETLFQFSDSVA
Chain of UniProt P22455 (whole entry, looked up): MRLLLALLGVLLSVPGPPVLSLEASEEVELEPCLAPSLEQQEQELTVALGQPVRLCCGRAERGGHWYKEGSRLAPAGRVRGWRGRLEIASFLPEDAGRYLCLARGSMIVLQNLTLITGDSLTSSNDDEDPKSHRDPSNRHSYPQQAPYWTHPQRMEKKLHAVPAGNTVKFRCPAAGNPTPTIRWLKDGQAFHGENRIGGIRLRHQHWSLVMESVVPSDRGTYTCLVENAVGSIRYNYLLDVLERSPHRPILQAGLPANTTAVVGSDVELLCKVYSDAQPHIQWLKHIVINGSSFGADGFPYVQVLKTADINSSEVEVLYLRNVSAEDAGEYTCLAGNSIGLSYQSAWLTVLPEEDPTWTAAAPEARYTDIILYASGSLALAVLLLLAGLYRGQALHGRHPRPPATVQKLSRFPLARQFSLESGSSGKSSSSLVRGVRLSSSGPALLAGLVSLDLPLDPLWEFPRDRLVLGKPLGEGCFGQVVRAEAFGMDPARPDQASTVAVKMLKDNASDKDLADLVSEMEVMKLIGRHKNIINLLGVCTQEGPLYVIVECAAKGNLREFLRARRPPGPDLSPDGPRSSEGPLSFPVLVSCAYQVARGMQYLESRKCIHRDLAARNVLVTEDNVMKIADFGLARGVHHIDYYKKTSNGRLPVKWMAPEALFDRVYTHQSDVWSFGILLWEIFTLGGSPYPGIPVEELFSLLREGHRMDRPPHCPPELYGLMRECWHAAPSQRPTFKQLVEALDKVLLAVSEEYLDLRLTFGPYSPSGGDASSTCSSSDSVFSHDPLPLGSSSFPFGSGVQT
Chain of UniProt Q13153 (whole entry, looked up): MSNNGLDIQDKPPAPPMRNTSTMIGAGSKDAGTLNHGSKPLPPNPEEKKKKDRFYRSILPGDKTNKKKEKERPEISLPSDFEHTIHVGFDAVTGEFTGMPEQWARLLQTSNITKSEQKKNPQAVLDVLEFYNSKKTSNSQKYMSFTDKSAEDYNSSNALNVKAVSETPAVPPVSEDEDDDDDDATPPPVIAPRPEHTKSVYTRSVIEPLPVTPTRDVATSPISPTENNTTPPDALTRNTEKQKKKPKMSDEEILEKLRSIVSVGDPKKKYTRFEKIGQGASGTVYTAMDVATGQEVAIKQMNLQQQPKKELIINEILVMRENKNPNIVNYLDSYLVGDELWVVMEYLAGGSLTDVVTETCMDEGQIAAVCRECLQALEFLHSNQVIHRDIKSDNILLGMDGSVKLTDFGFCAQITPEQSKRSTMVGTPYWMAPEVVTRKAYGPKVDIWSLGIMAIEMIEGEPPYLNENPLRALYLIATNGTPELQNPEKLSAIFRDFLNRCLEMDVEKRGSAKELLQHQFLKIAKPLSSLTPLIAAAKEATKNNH

Series 1 — technique: microscale thermophoresis; quantity: Kd
Target: Dihydroxy-acid dehydratase, chloroplastic (DHAD, Arabidopsis thaliana, UniProt Q9LIR4)
Chain of UniProt Q9LIR4 (whole entry, looked up): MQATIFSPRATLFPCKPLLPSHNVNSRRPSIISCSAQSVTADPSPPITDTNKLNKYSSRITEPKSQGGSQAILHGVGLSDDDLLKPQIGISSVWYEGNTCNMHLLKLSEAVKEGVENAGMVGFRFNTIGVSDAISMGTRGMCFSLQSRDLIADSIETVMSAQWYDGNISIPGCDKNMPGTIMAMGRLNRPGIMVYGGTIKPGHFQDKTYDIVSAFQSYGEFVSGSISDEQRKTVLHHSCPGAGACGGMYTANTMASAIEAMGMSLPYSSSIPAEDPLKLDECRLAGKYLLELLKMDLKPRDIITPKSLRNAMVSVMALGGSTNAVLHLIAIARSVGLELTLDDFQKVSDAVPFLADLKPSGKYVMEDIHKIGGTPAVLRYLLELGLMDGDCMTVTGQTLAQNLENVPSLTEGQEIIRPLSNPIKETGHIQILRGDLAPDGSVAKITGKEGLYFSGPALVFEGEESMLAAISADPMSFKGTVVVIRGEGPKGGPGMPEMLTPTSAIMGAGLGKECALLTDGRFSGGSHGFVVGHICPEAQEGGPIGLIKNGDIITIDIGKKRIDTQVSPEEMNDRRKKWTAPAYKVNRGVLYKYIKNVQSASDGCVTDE
SMILES = Cc1ccc2c(c1)OC(O)(C(=O)O)C(=O)N2Cc1ccccc1 (stereo not drawn); result = 2.58 µM
SMILES = CN1C(=O)C(O)(C(=O)O)Oc2cc(F)ccc21 (stereo not drawn); result = 219 µM
SMILES = CC(C)(C)c1ccc(Oc2ccc3c(c2)OC(O)(C(=O)O)C(=O)N3Cc2ccccc2)cc1 (stereo not drawn); result = 64.9 µM
SMILES = CC(C)=CCN1C(=O)C(O)(C(=O)O)Oc2cc(F)ccc21 (stereo not drawn); result = 249 µM
SMILES = COc1ccc2c(c1)OC(O)(C(=O)O)C(=O)N2Cc1ccccc1 (stereo not drawn); result = 4.59 µM
SMILES = O=C(O)C1(O)Oc2cc(Br)ccc2N(Cc2ccccc2)C1=O (stereo not drawn); result = 1.26 µM

Series 2 — observed: kinase activity; quantity: inhibition
SMILES: CNc1ncc2cc(-c3cc(OC)cc(OC)c3Cl)c(=O)n(CCc3ccc(NC(=O)C(C#N)=CC(C)(C)N4CCOCC4)cc3)c2n1
target = NEK2 (Homo sapiens, UniProt P51955); concentration = 0.1 µM; result = -8%
target = FGFR4 (Homo sapiens, UniProt P22455); concentration = 1 µM; result = > 90% and 94%
target = FER (Homo sapiens, UniProt P16591); concentration = 0.1 µM; result = 6%
target = PIM2 (Homo sapiens, UniProt Q9P1W9); concentration = 0.1 µM; result = 1%
target = RPS6KA1 (Homo sapiens, UniProt Q15418); concentration = 1 µM; result = -1%
target = RPS6KA4 (Homo sapiens, UniProt O75676); concentration = 0.1 µM; result = -3%
target = FYN (Homo sapiens, UniProt P06241); concentration = 1 µM; result = 9%
target = DYRK1A (Homo sapiens, UniProt Q13627); concentration = 1 µM; result = -2%
target = NTRK1 (Homo sapiens, UniProt P04629); concentration = 1 µM; result = 0%
target = RPS6KB1 (Homo sapiens, UniProt P23443); concentration = 0.1 µM; result = -1%
target = EIF2AK3 (Homo sapiens, UniProt Q9NZJ5); concentration = 1 µM; result = 72%
target = NTRK2 (Homo sapiens, UniProt Q16620); concentration = 0.1 µM; result = 0%
target = CDC42BPB (Homo sapiens, UniProt Q9Y5S2); concentration = 1 µM; result = 3%
target = RPS6KA5 (Homo sapiens, UniProt O75582); concentration = 1 µM; result = 1%
target = PRKAA2 (Homo sapiens, UniProt P54646); concentration = 0.1 µM; result = -1%
target = Tyrosine-protein kinase Lyn, isoform A (LYN, Homo sapiens, UniProt P07948); concentration = 1 µM; result = 13%
target = FLT3 (Homo sapiens, UniProt P36888); concentration = 1 µM; result = 4%
target = MAP4K2 (Homo sapiens, UniProt Q12851); concentration = 1 µM; result = -12%
target = Cyclin-dependent kinase 6, with cyclin D3 (CDK6, Homo sapiens, UniProt Q00534); concentration = 1 µM; result = 19%
target = PAK1 (Homo sapiens, UniProt Q13153); concentration = 0.1 µM; result = 1%
target = SGK1 (Homo sapiens, UniProt O00141); concentration = 0.1 µM; result = -2%

Series 3 — cell line: U-87 MG; concentration: concentration not given; reference: DMSO; quantity: log2 fold change
SMILES: CCN1/C(=C/C=C2\CCCC(/C=C/C3=[N+](CC)c4ccccc4C3(C)C)=C2NCCCCCCCCN2CCC(Nc3nc4ccccc4n3Cc3ccc(F)cc3)CC2)C(C)(C)c2ccccc21
refers to = GALNTL6 mRNA; result = 6.58
refers to = DEDD2 mRNA; result = 1.87
refers to = GALT mRNA; result = -1.04
refers to = RUNX2 mRNA; result = -1.34
refers to = TUBE1 mRNA; result = 1.11
refers to = NAA11 mRNA; result = 5.71
refers to = CCNB1 mRNA; result = -2.23
refers to = TMTC4 mRNA; result = -1.18
refers to = ZFP36L2 mRNA; result = -0.807
refers to = FOXP1 mRNA; result = 0.987
refers to = ZMYND10 mRNA; result = -2.01
refers to = NEK2 mRNA; result = -1.53

Series 4 — concentration: 1 µM; quantity: remaining binding
SMILES: CCC1(c2cccc(-c3cn(C)nc3C)c2)C2=C(Nc3n[nH]cc31)C(F)C(C)(C)CC2=O (single isomer, unassigned)
target = GRK1 (Homo sapiens, UniProt Q15835); observed = binding; technique = competition with immobilised ligand; result = 100%
target = STK35 (Homo sapiens, UniProt Q8TDR2); observed = binding; technique = competition with immobilised ligand; result = 100%
target = RPS6KB1 (Homo sapiens, UniProt P23443); observed = kinase binding; technique = KINOMEscan; reference = DMSO control; result = 72%
target = EPHB1 (Homo sapiens, UniProt P54762); observed = kinase binding; technique = KINOMEscan; reference = DMSO control; result = 100%
target = CHUK (Homo sapiens, UniProt O15111); observed = kinase binding; technique = KINOMEscan; reference = DMSO control; result = 90%
target = ITK (Homo sapiens, UniProt Q08881); observed = kinase binding; technique = KINOMEscan; reference = DMSO control; result = 100%
target = PRKACB (Homo sapiens, UniProt P22694); observed = binding; technique = competition with immobilised ligand; result = 90%
target = WNK2 (Homo sapiens, UniProt Q9Y3S1); observed = binding; technique = competition with immobilised ligand; result = 100%
target = MET (Homo sapiens, UniProt P08581); observed = kinase binding; technique = KINOMEscan; reference = DMSO control; result = 88%
target = TBK1 (Homo sapiens, UniProt Q9UHD2); observed = binding; technique = competition with immobilised ligand; result = 100%
target = KIT (Homo sapiens, UniProt P10721, T670I/V559D); observed = kinase binding; technique = KINOMEscan; reference = DMSO control; result = 84%
target = MKNK2 (Homo sapiens, UniProt Q9HBH9); observed = binding; technique = competition with immobilised ligand; result = 100%
target = MAP3K19 (Homo sapiens, UniProt Q56UN5); observed = kinase binding; technique = KINOMEscan; reference = DMSO control; result = 100%
target = Ribosomal protein S6 kinase alpha-5, N-terminal kinase domain (RPS6KA5, Homo sapiens, UniProt O75582); observed = binding; technique = competition with immobilised ligand; result = 100%
target = PAK1 (Homo sapiens, UniProt Q13153); observed = binding; technique = competition with immobilised ligand; result = 100%

Series 5 — observed: thermal unfolding; technique: differential scanning fluorimetry; concentration: 5.5 µM; reading: higher = more unfolded; quantity: SYPRO Orange fluorescence
SMILES: C[C@@H]1CN(c2ccc(-c3cc(C(=O)NCCOCCOCCOCCOCCNC(=O)Cn4cc(-c5[nH]cc(C(=O)N[C@@H](CC(N)=O)c6ccc(F)c(Cl)c6)c5-c5ccc(Cl)cc5F)cn4)ccc3F)cc2NC(=O)c2c[nH]c(=O)cc2C(F)(F)F)C[C@H](C)N1C
DCAF1: DDB1- and CUL4-associated factor 1 (DCAF1, Homo sapiens, UniProt Q9Y4B6)
Chain of UniProt Q9Y4B6 (whole entry, looked up): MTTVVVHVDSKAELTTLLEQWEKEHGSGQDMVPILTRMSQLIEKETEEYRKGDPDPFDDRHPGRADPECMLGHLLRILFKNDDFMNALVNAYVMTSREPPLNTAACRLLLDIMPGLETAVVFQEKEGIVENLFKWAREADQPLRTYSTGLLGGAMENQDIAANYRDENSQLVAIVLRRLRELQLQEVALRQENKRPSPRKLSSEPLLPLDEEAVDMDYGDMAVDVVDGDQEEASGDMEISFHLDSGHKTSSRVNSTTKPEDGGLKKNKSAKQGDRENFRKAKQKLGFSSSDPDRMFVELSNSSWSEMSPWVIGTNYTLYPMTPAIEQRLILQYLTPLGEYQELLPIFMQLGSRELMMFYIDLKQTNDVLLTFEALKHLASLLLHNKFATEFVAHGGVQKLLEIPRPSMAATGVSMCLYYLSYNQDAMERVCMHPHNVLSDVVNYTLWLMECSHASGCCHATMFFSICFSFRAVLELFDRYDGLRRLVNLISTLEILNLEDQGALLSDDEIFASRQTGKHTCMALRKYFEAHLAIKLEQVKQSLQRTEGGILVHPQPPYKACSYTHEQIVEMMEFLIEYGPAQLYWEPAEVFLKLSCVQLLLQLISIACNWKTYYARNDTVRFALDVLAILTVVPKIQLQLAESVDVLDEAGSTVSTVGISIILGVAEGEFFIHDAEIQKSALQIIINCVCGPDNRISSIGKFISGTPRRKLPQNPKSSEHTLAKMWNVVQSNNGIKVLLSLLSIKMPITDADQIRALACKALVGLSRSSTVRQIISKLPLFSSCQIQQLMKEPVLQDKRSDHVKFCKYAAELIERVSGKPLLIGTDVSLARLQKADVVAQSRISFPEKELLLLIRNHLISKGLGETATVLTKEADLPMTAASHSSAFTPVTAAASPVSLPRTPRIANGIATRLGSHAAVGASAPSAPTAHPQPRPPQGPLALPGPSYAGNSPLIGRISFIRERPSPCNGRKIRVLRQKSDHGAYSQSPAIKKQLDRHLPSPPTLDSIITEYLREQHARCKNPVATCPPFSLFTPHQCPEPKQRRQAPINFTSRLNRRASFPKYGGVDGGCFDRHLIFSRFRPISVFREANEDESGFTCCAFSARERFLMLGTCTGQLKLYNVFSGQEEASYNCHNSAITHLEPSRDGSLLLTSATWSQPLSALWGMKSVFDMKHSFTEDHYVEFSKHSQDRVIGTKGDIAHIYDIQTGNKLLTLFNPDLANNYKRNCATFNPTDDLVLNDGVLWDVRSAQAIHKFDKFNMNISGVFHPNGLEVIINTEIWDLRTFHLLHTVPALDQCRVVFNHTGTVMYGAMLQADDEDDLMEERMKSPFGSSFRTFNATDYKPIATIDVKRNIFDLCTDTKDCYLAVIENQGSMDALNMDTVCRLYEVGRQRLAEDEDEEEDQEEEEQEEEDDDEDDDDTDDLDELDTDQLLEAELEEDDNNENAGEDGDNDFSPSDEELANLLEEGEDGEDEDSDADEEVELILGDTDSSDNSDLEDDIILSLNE
WDR5: WD repeat-containing protein 5 (WDR5, Homo sapiens, UniProt P61964)
target = DCAF1; temperature = 76.81 °C; result = 47300 a.u.
target = WDR5; temperature = 57.81 °C; result = 12000 a.u.
target = WDR5; temperature = 62.81 °C; result = 8920 a.u.
target = WDR5; temperature = 34.8 °C; result = 14300 a.u.
target = WDR5; temperature = 31.2 °C; result = 14900 a.u.
target = DCAF1; temperature = 79.81 °C; result = 44400 a.u.
target = WDR5; temperature = 89.81 °C; result = 43300 a.u.
target = WDR5; temperature = 65.41 °C; result = 7450 a.u.
target = WDR5; temperature = 63.21 °C; result = 8680 a.u.
target = DCAF1; temperature = 27.6 °C; result = 7760 a.u.
target = WDR5; temperature = 38.6 °C; result = 14400 a.u.

Series 6 — matrix: plasma; route: oral; quantity: half-life
Compound: Cc1ccc(O)c(C)c1-c1cnc2[nH]c(-c3cnc(N4CCC5(CC4)CC(N4CCN(c6ccc(N[C@H]7CCC(=O)NC7=O)cc6F)CC4)CO5)nc3)cc2c1C#N (single isomer, unassigned)
host = male beagle dog; dose = 5 mg/kg; result = 378 min
host = cynomolgus monkey, male; dose = 10 mg/kg; result = 654 min
host = CD-1 mouse, female; dose = 40 mg/kg; result = 192 min
host = Sprague-Dawley rat, male; dose = 20 mg/kg; result = 462 min

Single results of other studies
Structure (SMILES) = Cn1ncc2c1N(CCCCNC/C=C/C#N)c1cc(Cl)ccc1CC2; tested on = NCI-H292; assay = cell growth or viability, ATP luminescence; quantity = IC50; result = 2.55 µM
Structure (SMILES) = CCN1CCN(Cc2ccc(COc3c(-c4c(C)c(F)cc5[nH]ncc45)c(C4CC4)cc4c(N5C[C@@H]6C[C@H]5CN6)nc(OC5CCOCC5)nc34)cc2)C(=O)C1; tested on = AsPC-1 (KRAS G12D); assay = CellTiter-Glo; setting = 1 µM; quantity = viability; result = 13.5% and 10.9% and 11.7% and 11.1%
Structure (SMILES) = CCONC(=O)/C=C/CNCCCCN1c2cc(Cl)ccc2CCc2cnn(C)c21.O=C(O)/C=C\C(=O)O; system = mouse plasma; setting = 5 µM; quantity = half-life; result = 32.6 ± 1.9 min
Structure (SMILES) = Cc1ncsc1-c1ccc(C2(NC(=O)C3CC(O)CN3C(=O)C(NC(=O)c3ccc(COc4c(-c5c(C)c(F)cc6[nH]ncc56)c(C5CC5)cc5c(N6CC7CC6CN7)nc(OC6CCOCC6)nc45)cc3)C(C)(C)C)CC2)cc1 (stereo not drawn); tested on = GTPase KRas, GDP-bound (KRAS, Homo sapiens, UniProt P01116, G12D); assay = SPR, single-cycle; system = immobilized KRAS G12D; setting = binary, geometric mean; quantity = koff; result = 0.0156 s⁻¹
Structure (SMILES) = CCOC(=O)/C=C/CNCCCCN1c2cc(Cl)ccc2CCc2cnn(C)c21.O=C(O)/C=C\C(=O)O; tested on = NCI-H292; assay = CellTiter-Glo; setting = 0.5 µM, 72 h; how to read = higher = more viable cells; quantity = luminescence; result = 3.89e+06 a.u. and 3.83e+06 a.u. and 3.92e+06 a.u.
Structure (SMILES) = Cc1ncsc1-c1ccc(C(CO)NC(=O)C2CC(O)CN2C(=O)C(NC(=O)c2ccc(COc3c(-c4c(C)c(F)cc5[nH]ncc45)c(C4CC4)cc4c(N5CC6CC5CN6)nc(OC5CCOCC5)nc34)cc2)C(C)C)cc1 (stereo not drawn); tested on = KRAS/VHL, GDP-bound (Homo sapiens, UniProt P01116+P40337, G12D); assay = SPR, single-cycle; system = immobilized KRAS G12D; setting = ternary, geometric mean, together with: VCB complex; quantity = koff; result = 0.0118 s⁻¹
Structure (SMILES) = N#C/C=C/CNCCCCN1c2ccccc2CCc2ccc(Cl)cc21; tested on = NCI-H292; assay = cell growth or viability, ATP luminescence; quantity = IC50; result = 5.28 µM
Structure (SMILES) = Cc1nc(C)c(C=[N+]([O-])C(C)(C)C)nc1C; system = primary cerebellar granule neurons, rat; setting = 30 µM, 2 h, together with: MPP+; how to read = reference: control; quantity = ATP content; result = 33.7% and 28.2% and 30.2%
Structure (SMILES) = Cc1ncsc1-c1ccc(C(CO)NC(=O)C2CC(O)CN2C(=O)C(C(C)C)n2cc(-c3ccc(COc4c(-c5c(C)c(F)cc6[nH]ncc56)c(C5CC5)cc5c(N6CC7CC6CN7)nc(OC6CCOCC6)nc45)cc3)nn2)cc1 (stereo not drawn); tested on = von Hippel-Lindau disease tumor suppressor, with Elongin B/C (VHL, Homo sapiens, UniProt P40337); assay = SPR, single-cycle; system = immobilized VCB complex; setting = binary, geometric mean; quantity = Kd; result = 0.00745 µM
